Experimental data gathered from unrelated publications.
Each numbered part is a random draw from the data of one study; scales do not carry over between parts.
Chain of UniProt Q9Y2I7 (whole entry, looked up): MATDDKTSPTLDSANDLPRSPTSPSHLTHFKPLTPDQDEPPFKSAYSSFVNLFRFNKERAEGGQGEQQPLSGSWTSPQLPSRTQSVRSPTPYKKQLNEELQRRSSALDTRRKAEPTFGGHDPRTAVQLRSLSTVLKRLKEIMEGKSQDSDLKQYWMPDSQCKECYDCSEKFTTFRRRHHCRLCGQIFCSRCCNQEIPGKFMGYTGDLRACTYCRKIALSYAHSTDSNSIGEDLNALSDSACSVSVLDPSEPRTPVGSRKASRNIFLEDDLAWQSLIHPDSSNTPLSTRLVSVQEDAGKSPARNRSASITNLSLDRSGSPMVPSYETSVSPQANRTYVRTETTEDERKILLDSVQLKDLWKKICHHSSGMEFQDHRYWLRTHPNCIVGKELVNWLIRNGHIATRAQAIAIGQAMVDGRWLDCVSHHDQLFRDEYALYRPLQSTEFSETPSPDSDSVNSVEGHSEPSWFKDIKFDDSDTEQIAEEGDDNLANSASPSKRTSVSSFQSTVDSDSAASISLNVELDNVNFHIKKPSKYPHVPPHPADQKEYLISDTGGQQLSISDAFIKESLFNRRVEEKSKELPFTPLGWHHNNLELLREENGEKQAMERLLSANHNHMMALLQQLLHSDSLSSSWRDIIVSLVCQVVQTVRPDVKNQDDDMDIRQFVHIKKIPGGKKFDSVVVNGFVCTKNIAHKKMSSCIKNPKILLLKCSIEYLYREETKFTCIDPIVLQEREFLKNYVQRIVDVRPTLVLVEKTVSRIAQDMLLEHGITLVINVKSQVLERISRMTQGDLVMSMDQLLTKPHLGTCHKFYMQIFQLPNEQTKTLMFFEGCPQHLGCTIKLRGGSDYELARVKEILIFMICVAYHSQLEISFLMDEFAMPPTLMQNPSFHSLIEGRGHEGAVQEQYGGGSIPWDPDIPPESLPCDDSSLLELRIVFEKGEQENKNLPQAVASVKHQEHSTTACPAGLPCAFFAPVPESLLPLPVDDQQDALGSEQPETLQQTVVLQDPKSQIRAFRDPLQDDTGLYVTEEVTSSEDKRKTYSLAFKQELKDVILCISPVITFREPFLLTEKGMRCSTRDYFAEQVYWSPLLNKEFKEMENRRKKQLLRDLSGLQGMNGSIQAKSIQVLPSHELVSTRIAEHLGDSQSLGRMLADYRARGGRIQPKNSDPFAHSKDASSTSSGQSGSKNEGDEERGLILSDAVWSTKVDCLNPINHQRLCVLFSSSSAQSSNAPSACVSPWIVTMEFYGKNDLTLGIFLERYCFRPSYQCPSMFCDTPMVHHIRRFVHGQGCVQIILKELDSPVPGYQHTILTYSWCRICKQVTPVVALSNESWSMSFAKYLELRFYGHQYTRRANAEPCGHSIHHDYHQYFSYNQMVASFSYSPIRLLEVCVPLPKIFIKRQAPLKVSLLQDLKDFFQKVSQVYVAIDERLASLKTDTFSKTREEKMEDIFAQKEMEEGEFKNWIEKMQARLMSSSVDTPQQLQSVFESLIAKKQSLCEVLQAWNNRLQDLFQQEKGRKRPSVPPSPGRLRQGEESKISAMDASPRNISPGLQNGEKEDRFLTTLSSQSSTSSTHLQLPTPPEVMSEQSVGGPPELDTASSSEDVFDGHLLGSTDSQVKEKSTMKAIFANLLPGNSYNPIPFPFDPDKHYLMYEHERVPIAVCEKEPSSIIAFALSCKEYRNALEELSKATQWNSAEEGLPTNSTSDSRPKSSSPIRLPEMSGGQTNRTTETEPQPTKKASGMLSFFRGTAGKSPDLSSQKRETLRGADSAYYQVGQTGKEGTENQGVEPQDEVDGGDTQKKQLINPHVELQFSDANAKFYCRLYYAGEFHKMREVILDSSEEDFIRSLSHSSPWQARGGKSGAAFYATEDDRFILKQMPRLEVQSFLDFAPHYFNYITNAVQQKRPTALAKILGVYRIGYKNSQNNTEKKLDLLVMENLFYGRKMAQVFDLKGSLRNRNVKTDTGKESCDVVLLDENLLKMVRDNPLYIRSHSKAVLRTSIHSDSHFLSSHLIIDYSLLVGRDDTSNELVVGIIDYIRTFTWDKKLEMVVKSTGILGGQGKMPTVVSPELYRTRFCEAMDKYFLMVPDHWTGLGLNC
Chain of UniProt O15530 (whole entry, looked up): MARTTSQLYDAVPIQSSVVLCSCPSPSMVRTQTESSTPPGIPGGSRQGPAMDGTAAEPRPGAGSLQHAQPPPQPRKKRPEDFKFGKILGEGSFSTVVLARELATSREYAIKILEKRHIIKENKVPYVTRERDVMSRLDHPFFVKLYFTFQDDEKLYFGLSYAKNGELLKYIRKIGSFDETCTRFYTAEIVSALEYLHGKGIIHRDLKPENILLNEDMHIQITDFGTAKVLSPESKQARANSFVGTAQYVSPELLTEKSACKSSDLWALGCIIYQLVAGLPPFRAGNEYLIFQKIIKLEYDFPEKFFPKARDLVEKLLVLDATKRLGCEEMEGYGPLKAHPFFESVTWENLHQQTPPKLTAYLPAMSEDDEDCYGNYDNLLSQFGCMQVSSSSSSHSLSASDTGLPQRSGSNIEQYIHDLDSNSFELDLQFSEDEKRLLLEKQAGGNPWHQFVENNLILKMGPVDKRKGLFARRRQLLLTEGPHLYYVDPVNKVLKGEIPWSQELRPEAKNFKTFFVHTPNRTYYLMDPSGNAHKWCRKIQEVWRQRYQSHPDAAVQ
Chain of UniProt Q15418 (whole entry, looked up): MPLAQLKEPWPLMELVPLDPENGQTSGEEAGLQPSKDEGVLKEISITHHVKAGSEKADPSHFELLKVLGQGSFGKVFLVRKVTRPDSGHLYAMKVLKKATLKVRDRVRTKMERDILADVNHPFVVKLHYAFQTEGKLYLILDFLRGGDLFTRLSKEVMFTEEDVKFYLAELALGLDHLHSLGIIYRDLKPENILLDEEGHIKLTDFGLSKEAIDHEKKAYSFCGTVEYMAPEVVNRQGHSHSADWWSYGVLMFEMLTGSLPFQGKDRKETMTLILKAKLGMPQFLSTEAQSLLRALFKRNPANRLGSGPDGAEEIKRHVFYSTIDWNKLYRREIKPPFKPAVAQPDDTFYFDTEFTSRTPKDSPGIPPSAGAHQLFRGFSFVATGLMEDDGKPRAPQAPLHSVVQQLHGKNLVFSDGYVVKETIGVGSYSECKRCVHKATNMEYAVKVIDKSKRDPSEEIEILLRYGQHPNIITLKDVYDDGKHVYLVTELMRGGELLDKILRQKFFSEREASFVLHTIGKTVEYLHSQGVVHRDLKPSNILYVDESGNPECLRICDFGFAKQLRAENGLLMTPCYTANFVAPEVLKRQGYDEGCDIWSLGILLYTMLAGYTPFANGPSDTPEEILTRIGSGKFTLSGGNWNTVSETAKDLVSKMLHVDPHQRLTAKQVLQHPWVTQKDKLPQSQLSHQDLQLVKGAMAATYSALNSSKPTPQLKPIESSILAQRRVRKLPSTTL
Chain of UniProt Q9HC98 (whole entry, looked up): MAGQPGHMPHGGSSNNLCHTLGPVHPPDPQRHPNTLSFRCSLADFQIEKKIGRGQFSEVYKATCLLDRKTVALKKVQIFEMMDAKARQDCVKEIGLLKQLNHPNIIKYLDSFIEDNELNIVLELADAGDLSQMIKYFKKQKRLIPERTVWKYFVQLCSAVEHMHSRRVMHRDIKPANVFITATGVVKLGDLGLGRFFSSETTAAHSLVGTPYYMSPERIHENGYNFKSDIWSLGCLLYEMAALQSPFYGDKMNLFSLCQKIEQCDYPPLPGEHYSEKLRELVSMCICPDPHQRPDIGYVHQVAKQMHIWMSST

Series 1
Target: Transcription factor SOX-2, HMG box (Sox2, Mus musculus, UniProt P48432, residues 41-119)
Chain of UniProt P48432 (41-119, looked up): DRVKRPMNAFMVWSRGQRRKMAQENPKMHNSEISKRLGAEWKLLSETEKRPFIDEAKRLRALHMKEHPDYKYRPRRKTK
Method: Spec-seq
Form: double-stranded DNA, one strand shown
Sample: in vitro
Tested at: not given
Setting: whole probe, mean of replicates
Baseline: not given
Reading: lower = stronger binding
Endpoint: relative binding energy
Shared flanks, not repeated: GAGTCGTCTCGTCAGCAC … CCGTAGAGCACTCAGGTC
CTCCGTT: 0.897 ln ratio
CATCTAC: 0.745 ln ratio
ATAAGTT: 0.163 ln ratio
GTATGTT: 0.386 ln ratio
TTCGGTT: 1.11 ln ratio
TCTTGTT: -1.11 ln ratio
CTCAGTT: 0.224 ln ratio
GCGTGTT: 1.2 ln ratio

Series 2
Target: Serine/threonine-protein kinase TBK1 (TBK1, Homo sapiens, UniProt Q9UHD2)
Chain of UniProt Q9UHD2 (whole entry, looked up): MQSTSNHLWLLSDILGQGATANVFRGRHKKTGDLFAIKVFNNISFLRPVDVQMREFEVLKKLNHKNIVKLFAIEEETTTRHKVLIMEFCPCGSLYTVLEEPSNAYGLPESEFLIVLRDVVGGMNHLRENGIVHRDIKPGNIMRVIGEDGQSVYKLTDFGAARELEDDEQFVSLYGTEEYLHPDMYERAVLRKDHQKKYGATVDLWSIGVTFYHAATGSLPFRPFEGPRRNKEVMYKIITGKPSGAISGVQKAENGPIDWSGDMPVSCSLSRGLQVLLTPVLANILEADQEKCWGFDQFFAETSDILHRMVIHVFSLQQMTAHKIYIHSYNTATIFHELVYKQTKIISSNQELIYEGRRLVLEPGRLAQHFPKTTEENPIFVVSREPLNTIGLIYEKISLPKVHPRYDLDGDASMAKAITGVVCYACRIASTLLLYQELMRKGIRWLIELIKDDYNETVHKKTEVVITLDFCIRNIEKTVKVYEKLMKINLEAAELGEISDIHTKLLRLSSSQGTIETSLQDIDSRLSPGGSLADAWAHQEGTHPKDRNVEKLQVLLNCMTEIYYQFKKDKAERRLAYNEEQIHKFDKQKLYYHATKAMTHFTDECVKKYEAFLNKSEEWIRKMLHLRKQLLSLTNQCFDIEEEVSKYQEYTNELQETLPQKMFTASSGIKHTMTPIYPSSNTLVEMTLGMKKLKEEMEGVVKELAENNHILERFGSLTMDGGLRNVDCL
Effect on: enzyme activity
Action: inhibitor
Tested at: 0.5 µM
Baseline: control
Endpoint: remaining activity
Cn1sc(=O)n(Cc2ccccc2)c1=O: 102%
Oc1ccc(-c2nc(-c3ccncc3)c(-c3ccc(F)cc3)[nH]2)cc1: 95.2%
CN(C)c1ccc(C=C2C(=O)Nc3ccccc32)cc1: 98.4%
Cc1cccc(-c2[nH]c(C(C)(C)C)nc2-c2ccc3c(c2)OCO3)n1: 91.9%
O=C1NC(=O)C(c2cn(CCCO)c3ncccc23)=C1c1cnccn1: 98.8%
CC(C)[C@H](CO)Nc1nc(Nc2cc(N)cc(Cl)c2)c2ncn(C(C)C)c2n1: 86.6%
Nc1ccc2ncnc(NCCc3ccc(Oc4ccccc4)cc3)c2c1: 100%
Cc1ccc(Nc2nccc(N(C)c3ccc4c(C)n(C)nc4c3)n2)cc1S(N)(=O)=O: 99.5%
NCCNc1ncc(C(N)=O)c(Nc2cccc(C(F)(F)F)c2)n1: 86%
Nc1ncnc2n[nH]c(Nc3ccc(F)cc3)c12: 99.6%
CNC(=O)c1cc(Oc2ccc(NC(=O)Nc3ccc(Cl)c(C(F)(F)F)c3)cc2)ccn1: 98.6%
COc1ccc(C(=O)Nc2sc3c(c2C(N)=O)CCCC3)cc1OC: 102%
C#Cc1cccc(Nc2ncnc3cc(OCCOC)c(OCCOC)cc23)c1: 73%
COc1cc2ncnc(Nc3ccc(F)c(Cl)c3)c2cc1OCCCN1CCOCC1: 83.1%

Series 3
Compound: O=C(N1CCS(=O)(=O)CC1)N1C[C@H](c2ccc(OC(F)(F)F)cc2)C[C@H](c2nc(C3CC3)no2)C1
Method: competition with immobilised ligand
Tested at: 1 µM
Endpoint: remaining binding
TNK1 (Homo sapiens, UniProt Q13470); cell-free assay: 100%
STK32C (Homo sapiens, UniProt Q86UX6); cell-free assay: 93%
EGFR (Homo sapiens, UniProt P00533, L861Q); cell-free assay: 68%
PIKFYVE (Homo sapiens, UniProt Q9Y2I7); cell-free assay: 100%
NEK6 (Homo sapiens, UniProt Q9HC98); cell-free assay: 98%
RET (Homo sapiens, UniProt P07949, V804M); cell-free assay: 100%
Ribosomal protein S6 kinase alpha-1, N-terminal kinase domain (RPS6KA1, Homo sapiens, UniProt Q15418); cell-free assay: 100%
Non-receptor tyrosine-protein kinase TYK2, JH2 (TYK2, Homo sapiens, UniProt P29597); cell-free assay: 94%
GRK2 (Homo sapiens, UniProt P25098); cell-free assay: 66%
BMPR1A (Homo sapiens, UniProt P36894); binding: 89%
CDC42BPB (Homo sapiens, UniProt Q9Y5S2); cell-free assay: 100%
PDPK1 (Homo sapiens, UniProt O15530); cell-free assay: 94%
NLK (Homo sapiens, UniProt Q9UBE8); cell-free assay: 100%
MAPK15 (Homo sapiens, UniProt Q8TD08); cell-free assay: 100%
TGFBR1 (Homo sapiens, UniProt P36897); cell-free assay: 100%
Ribosomal protein S6 kinase alpha-2, C-terminal kinase domain (RPS6KA2, Homo sapiens, UniProt Q15349); cell-free assay: 100%
SBK1 (Homo sapiens, UniProt Q52WX2); cell-free assay: 90%
ULK1 (Homo sapiens, UniProt O75385); cell-free assay: 100%
Myosin-IIIb (MYO3B, Homo sapiens, UniProt Q8WXR4); binding: 89%
TAOK3 (Homo sapiens, UniProt Q9H2K8); cell-free assay: 100%

Series 4
Target: Ras GTPase-activating protein-binding protein 1, full length (G3BP1, Homo sapiens, UniProt Q13283)
Chain of UniProt Q13283 (whole entry, looked up): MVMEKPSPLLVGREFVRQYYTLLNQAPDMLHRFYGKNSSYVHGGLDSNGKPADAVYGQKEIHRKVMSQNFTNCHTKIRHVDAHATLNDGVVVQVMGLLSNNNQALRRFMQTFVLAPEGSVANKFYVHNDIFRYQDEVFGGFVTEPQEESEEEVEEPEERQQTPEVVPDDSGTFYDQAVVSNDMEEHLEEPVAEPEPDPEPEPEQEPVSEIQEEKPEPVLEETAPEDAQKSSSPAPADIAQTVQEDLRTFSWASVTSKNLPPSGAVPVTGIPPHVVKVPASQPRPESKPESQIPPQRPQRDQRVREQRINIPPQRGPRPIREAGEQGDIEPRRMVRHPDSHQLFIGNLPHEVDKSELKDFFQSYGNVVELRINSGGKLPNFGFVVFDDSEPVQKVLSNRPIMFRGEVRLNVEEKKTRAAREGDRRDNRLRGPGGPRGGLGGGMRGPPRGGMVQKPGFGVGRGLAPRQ
Method: RNA Bind-n-Seq
Form: RNA
Sample: in vitro
Tested at: 200 nM
Setting: whole 134-nt RNA, ends assumed
With: 150 mM LiCl
Baseline: input library
Reading: higher = stronger binding
Endpoint: log2 enrichment
All molecules: 7-deaza-guanosine replaces G
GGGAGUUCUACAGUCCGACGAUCUGUGGAGGAGACGGCCGACUCGACGCUGUGCCACAUCCUGAACCUGUACCGGCGGGCCACCUGGCUGCACCAGGCGCUGCGGGAGGGCACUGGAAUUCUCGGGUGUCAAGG: -0.683
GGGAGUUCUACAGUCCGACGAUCUGGGAGGUGGAUUUUGUUUUUUUUUUUAGCUCAUUUCCAGGGGUGGGAAUUUUUUUUUAAUAUGUGUCAUGAAUAAAGUUGUUUUUGAAAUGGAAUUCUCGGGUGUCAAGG: -0.177
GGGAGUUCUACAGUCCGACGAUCACCAUGCAGGUGGGCAUCUUUGGGAAGUGGGGCAAGGGGGGGAUAGGGAGGGGGGUAACACUUUGGGAACAGGGGGUCCCAGGUCGUUUCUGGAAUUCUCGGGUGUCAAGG: 0.158
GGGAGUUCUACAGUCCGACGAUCCUGUGCUACACAUCGUAUGUACCGAAUCGGGGAAAAAAAGGGAAAAAAAGGAAAAAAAGGGAAAGUAUUAUGUUACGCCGUUCGGAUCUGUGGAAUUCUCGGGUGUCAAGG: 0.111
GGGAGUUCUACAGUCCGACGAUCUCCUGUGCUACACAUCGUAUGUACCGAAUCAAACCCCCCCAAACCCCCAAACCCCCAAAAAAGUAUUAUGUUACGCCGUUCGGAUCUGCAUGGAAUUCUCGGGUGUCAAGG: 0.0838
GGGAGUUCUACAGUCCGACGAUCGUCCUGUGCUACACAUCGUAUGUACCGAAUCAAACCCCCCCAAACCCAAAUUUUUAAAAAAGUAUUAUGUUACGCCGUUCGGAUCUGCACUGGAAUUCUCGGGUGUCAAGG: 0.741
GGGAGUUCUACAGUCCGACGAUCCCUCAAGUCCUGUGCUACACAUCGUAUGUACCGAAUCGGCCGGCCGGGCCGGGAAAGUAUUAUGUUACGCCGUUCGGAUCUGCACUUCCAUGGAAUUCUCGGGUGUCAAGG: 0.66
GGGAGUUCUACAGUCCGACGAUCCAAGUCCUGUGCUACACAUCGUAUGUACCGAAUCGGGUUUGGGUGGGAAAAAGGGAAAGUAUUAUGUUACGCCGUUCGGAUCUGCACUUCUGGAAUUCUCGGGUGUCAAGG: -0.00193

Some of these lines once more (series 2):
COc1cc2ncnc(Nc3ccc(F)c(Cl)c3)c2cc1OCCCN1CCOCC1: 83.1%
CN(C)c1ccc(C=C2C(=O)Nc3ccccc32)cc1: 98.4%
Cc1ccc(Nc2nccc(N(C)c3ccc4c(C)n(C)nc4c3)n2)cc1S(N)(=O)=O: 99.5%
O=C1NC(=O)C(c2cn(CCCO)c3ncccc23)=C1c1cnccn1: 98.8%
Nc1ncnc2n[nH]c(Nc3ccc(F)cc3)c12: 99.6%
Nc1ccc2ncnc(NCCc3ccc(Oc4ccccc4)cc3)c2c1: 100%
CC(C)[C@H](CO)Nc1nc(Nc2cc(N)cc(Cl)c2)c2ncn(C(C)C)c2n1: 86.6%
NCCNc1ncc(C(N)=O)c(Nc2cccc(C(F)(F)F)c2)n1: 86%
